Measured values collected from several papers.
“And” joins repeats or separate records; there may be more than shown. ± marks the error that the study gave.
Cell line: RAW264.7

Cc1ccc(S(=O)(=O)NNC(=O)COC(=O)c2ccccc2Nc2cccc(C(F)(F)F)c2)cc1 — PGE2 level (ELISA; concentration not given, 24 h, together with: LPS 100 ng/mL): 88.2 pg/mL and 61.6 pg/mL
Cc1sc2c(c1C)C(c1ccc(Cl)cc1)=N[C@@H](CC(=O)NCCCCCCCCNC(=O)COc1cccc3c1C(=O)N(C1CCC(=O)NC1=O)C3=O)c1nnc(C)n1-2 (stereo partly shown) — CD206+ cells (macrophage polarization, flow cytometry; 0.25 µg/mL, 24 h, together with: IL-4 20 ng/mL pretreatment): 0.19% and 0.22% and 0.17%
N=C(N)Nc1ccc(NC(=O)c2ccc(Cl)c(Cl)c2)cc1OCc1ccc(C(F)(F)F)cc1 — IC50 (cell growth, MTT; 48 h): > 500 µM
O=C(COC(=O)c1ccccc1Nc1cccc(C(F)(F)F)c1)NNS(=O)(=O)c1ccccc1 — PGE2 level (ELISA; concentration not given, 24 h, together with: LPS 100 ng/mL): 88.3 pg/mL and 61.6 pg/mL
CC(C)c1c(C(=O)Nc2ccccc2)c(-c2ccccc2)c(-c2ccc(F)cc2)n1CC[C@@H](O)C[C@@H](O)CC(=O)O — foam cell formation (lipid droplet accumulation, Oil Red O staining; 24 h, 48 h oxLDL pre-exposure, together with: oxidized LDL): decreased
CCS(=O)(=O)N(C)c1ccc(NC(=O)c2cccc(C(=N)N)c2)cc1OCc1ccc(C(=N)N)cc1 — IC50 (cell growth, MTT; 48 h): > 500 µM
C=C1C[C@](OC)([C@H](OCOC/C=C/B2OC(CC)(CC)C(CC)(CC)O2)C(=O)NC[C@@H]2C[C@@H](OC)C(C)(C)[C@@H](C[C@@H](COC)OC)O2)O[C@H](C)[C@@H]1C — IC50 (cell viability, sulforhodamine B; 48 h, 37 °C, without H2O2): 0.119 ± 0.037 µM
O=c1cc(-c2ccccc2)oc2cc(O)c(O)c(O)c12 — foam cell formation (lipid droplet accumulation, Oil Red O staining; 24 h, 48 h oxLDL pre-exposure, together with: oxidized LDL): decreased
N=C(N)Nc1ccc(NC(=O)c2ccc(C(F)(F)F)cc2C(F)(F)F)cc1OCc1ccc(C(F)(F)F)cc1 — IC50 (cell growth, MTT; 48 h): > 500 µM
CC(=O)O[C@@H]1CC[C@@]2(C)[C@@H](CC[C@]3(C)[C@@H]2C(=O)C=C2[C@@H]4[C@@H](C)[C@H](C)CC[C@]4(C)CC[C@]23C)[C@@]1(C)C(=O)O — cytokine production (ELISA, item: TNF-α, IL-6, IFN-γ; concentration not given, together with: LPS; relative to: LPS alone): decreased

A few entries again:
N=C(N)Nc1ccc(NC(=O)c2ccc(Cl)c(Cl)c2)cc1OCc1ccc(C(F)(F)F)cc1 — IC50 (cell growth, MTT; 48 h): > 500 µM
